Assay results from different studies.
Values joined by “and” are separate records of one study, mostly repeats; a detail may differ. Values after ≈ are worked out from the molar mass of the structure shown.
Sequence of UniProt P0DMS8 (whole entry, looked up): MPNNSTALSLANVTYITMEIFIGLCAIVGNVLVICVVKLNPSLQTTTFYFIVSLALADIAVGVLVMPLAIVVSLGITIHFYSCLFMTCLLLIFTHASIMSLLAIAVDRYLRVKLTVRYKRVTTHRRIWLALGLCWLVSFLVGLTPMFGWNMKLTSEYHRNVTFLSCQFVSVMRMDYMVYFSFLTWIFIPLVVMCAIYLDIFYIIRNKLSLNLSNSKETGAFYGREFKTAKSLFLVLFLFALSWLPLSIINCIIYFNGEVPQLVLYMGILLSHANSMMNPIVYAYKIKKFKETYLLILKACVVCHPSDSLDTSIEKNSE
Sequence of UniProt P47871 (whole entry, looked up): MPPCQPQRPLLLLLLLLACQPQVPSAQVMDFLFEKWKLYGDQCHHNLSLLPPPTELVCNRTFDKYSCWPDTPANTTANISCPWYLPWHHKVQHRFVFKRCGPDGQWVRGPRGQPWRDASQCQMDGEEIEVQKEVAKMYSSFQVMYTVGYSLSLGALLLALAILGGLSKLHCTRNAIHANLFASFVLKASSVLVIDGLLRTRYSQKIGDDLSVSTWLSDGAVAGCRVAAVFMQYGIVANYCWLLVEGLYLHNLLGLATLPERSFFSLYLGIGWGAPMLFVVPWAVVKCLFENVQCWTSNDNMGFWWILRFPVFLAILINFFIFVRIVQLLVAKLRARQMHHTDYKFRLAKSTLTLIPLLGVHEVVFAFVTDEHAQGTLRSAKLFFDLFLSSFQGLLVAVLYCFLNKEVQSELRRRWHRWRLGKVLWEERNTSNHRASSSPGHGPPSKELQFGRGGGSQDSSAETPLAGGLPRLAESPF
Sequence of UniProt P23977 (whole entry, looked up): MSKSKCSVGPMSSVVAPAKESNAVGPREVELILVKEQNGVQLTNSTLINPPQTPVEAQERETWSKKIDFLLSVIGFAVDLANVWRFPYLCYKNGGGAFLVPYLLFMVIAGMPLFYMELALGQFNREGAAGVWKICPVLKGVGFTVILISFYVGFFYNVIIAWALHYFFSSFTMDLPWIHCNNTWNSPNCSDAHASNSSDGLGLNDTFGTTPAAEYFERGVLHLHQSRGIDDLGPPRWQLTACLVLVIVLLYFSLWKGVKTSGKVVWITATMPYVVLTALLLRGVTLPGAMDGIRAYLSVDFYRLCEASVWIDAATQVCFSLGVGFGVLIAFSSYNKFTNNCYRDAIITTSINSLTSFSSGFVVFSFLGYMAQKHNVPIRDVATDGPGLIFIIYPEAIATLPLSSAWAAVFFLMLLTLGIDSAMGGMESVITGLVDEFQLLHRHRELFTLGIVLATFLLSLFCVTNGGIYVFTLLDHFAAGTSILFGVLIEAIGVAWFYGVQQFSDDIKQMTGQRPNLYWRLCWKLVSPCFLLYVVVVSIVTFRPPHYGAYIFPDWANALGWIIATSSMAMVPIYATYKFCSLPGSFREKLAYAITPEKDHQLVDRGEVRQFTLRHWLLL

Substance = COc1ccc(C[C@H]2NC[C@H](O)[C@H]2OC(C)=O)cc1; target or system = pigeon embryo fibroblasts; assay = cytotoxicity; measurement = CC50; value = 60000 nM
Substance = C[C@H]1[C@@H](CC(C[C@H]2O[C@@H]3C[C@]4(C)CC[C@H]5[C@H](C)CC[C@@H]([C@H]2C)[C@@]35OO4)CS(=O)(=O)c2ccc(COC(=O)N(C)C)cc2)O[C@@H]2C[C@]3(C)CC[C@H]4[C@H](C)CC[C@@H]1[C@@]24OO3 (some centres unmarked); target or system = Plasmodium berghei; system = ANKA, infected mice; setting = oral, 72 mg/kg single dose; measurement = mean survival time; value = 23 to 25 days and 23 days
Substance = CC[C@H](C)[C@H](NC(=O)[C@H](CCCCN)NC(=O)[C@H](CCC(N)=O)NC(=O)[C@H](Cc1ccccc1)NC(=O)[C@@H](NC(=O)[C@H](CCCCN)NC(=O)[C@H](CCCCN)NC(=O)[C@H](CC(C)C)NC(=O)[C@H](C)NC(=O)[C@H](CC(N)=O)NC(=O)[C@@H](N)CC(C)C)C(C)C)C(=O)N[C@@H](Cc1c[nH]cn1)C(=O)N[C@@H](CCC(=O)O)C(=O)N[C@@H](C)C(N)=O; target or system = Listeria monocytogenes; assay = broth microdilution; system = KCTC 3710; setting = 18 h, 37 °C; measurement = MIC; value = 32 µM (≈ 52.4 µg/mL)
Substance = glucagon mature, free N-terminus, free C-terminal acid; target or system = GCGR (Homo sapiens, UniProt P47871); assay = CRE luciferase reporter; system = HEK293; measurement = EC50; value = 0.03 nM
Substance = CNC(=O)[C@H]1O[C@@H](n2cnc3c(NCc4cccc(I)c4)nc(Cl)nc32)[C@H](O)[C@@H]1O; target or system = Adenosine receptor A3 (ADORA3, Homo sapiens, UniProt P0DMS8); assay = Motulsky-Mahan competition kinetics; setting = added: [3H]PSB-11; how to read = reference: no GTP over 1 mM GTP; measurement = dissociation rate ratio; value = ≤ 8 fold
Substance = C[C@H]1[C@@H](CC(C[C@H]2O[C@@H]3C[C@]4(C)CC[C@H]5[C@H](C)CC[C@@H]([C@H]2C)[C@@]35OO4)CS(=O)(=O)c2ccc(CO)cc2)O[C@@H]2C[C@]3(C)CC[C@H]4[C@H](C)CC[C@@H]1[C@@]24OO3 (some centres unmarked); target or system = Plasmodium berghei; system = ANKA, infected mice; setting = oral, 72 mg/kg single dose; measurement = mean survival time; value = 23 to 25 days and 25 days
Substance = C[C@H](N)C(=O)c1ccccc1; target or system = Sodium-dependent dopamine transporter (Slc6a3, Rattus norvegicus, UniProt P23977); assay = MPP+ release, releaser; system = rat striatal synaptosomes; setting = added: [3H]MPP+; measurement = EC50; value = 18 nM
Substance = CCCC[C@H]1NC(=O)[C@H](Cc2ccc(F)cc2)NC(=O)[C@H](CCCNC(=N)N)NC(=O)[C@@H](Cc2ccc3ccccc3c2)NC(=O)[C@H](CCCNC(=N)N)NC(=O)[C@H](CCCNC(=N)N)NC(=O)[C@H](CCC(N)=O)NC(=O)C[C@@H](CCc2ccccc2)NC(=O)[C@@H]2CCCCN2C(=O)C(=O)C(C)(C)COC1=O; target or system = MBP-fused viral VP35; assay = fluorescence polarization; setting = up to 20 µM; measurement = binding; value = no binding
